Published values gathered from unrelated publications.
Numbered parts are unrelated; each lists some results of a single study.

Study 1
Target: Histone acetyltransferase KAT6A, winged helix 1, GST fusion (KAT6A, Homo sapiens, UniProt Q92794, residues 1-85)
Method: protein binding microarray
Molecule type: double-stranded DNA, one strand shown
Sample: in vitro
Tested at: not given
Setting: 8-mer, flanks averaged, mean of 2 arrays, mostly near background
Reference: not given
Reading: higher = stronger binding
Quantity: E-score
Construct (chain): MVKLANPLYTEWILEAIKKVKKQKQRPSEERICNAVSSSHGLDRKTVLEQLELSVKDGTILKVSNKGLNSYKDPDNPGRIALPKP
AGGTTATC: -0.101
ATACTTGG: -0.247
AAGAGAGC: 0.0415
AGGTATAC: 0.00208
CTGGACAA: -0.208
ATTGTCAA: -0.128

Study 2
Target: RING finger protein unkempt homolog, zinc fingers 1-6, GST-SBP tag (UNK, Homo sapiens, UniProt Q9C0B0, residues 30-357)
Method: RNA Bind-n-Seq
Molecule type: RNA
Sample: in vitro
Tested at: not given
Setting: RNA with constant flanks, human-mouse chimeric sites, ends assumed
Reference: input RNA pool
Reading: higher = stronger binding
Quantity: bound/input enrichment
Constant ends, left off below: GGGAGUUCUACAGUCCGACGAUC … CAACAGAGGAUUGAGCAUCA
Residues (chain): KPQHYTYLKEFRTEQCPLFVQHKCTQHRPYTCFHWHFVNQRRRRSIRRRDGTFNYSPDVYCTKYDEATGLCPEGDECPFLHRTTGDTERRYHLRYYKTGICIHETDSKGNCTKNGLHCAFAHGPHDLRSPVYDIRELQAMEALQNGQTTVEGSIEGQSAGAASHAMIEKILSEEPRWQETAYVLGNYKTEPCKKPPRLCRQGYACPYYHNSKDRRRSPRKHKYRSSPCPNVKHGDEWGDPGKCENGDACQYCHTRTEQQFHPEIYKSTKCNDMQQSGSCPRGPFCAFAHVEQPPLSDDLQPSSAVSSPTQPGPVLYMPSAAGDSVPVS
UACAUCACCAAUGUUCUACAAAAUCCUGACUUGGCUCUGAGAAUGGCUGUGCGGAACAACUUAGCUGGUGCUGAAGAACUCUUUGCCCGGAAAUUUAAUGCUCUCUUCGCCCAGGGAAAC: 0.265 ratio
AAAGAACCUCUCUCUGAUGAAGAUGAGGAAGACAAUGAUGAUGUUGAACCCAUUUCUGAAUUUCGAUUUGUGCCCAGUGAUAAAUCAGCAUUGGAGGCAAUGUUCACAGCAAUGUGUGAG: 0.155 ratio
GUGUCCUGCUUUCAACUUAAAUCACUGAGGCAUCUCUACUGUUCUGUGAGCAUCAGGACUGUAGCGCUUGCCACCACCAUGAGAGUUGUUAAGCAGCCUUUCUGUGGAGGGUGGGAAUGA: 0.0973 ratio
UGGCGCCUGCGCUCCCCACUCGUGUUUGUAUUUUUAUUUUUAUAAGAUACAUGUAUUUACAAUUGAGCUUUUGUUACAUAAUGCUGAAAACAUCUCUGAGAUUAUGAAAAAUGUUUCAAU: 0.137 ratio
AUAAAGGCUAUGUUGAGUGGUCCAGGUCAGUUUGCUGAGAAUGAAACCAAUGAGGUCAAUUUUAGAGAGAUCCCCUCACAUGUGCUAUCGAAAGUAUGCAUGUAUUUUACCUACAAGGUC: 0.162 ratio

Study 3
Target: Fragile X messenger ribonucleoprotein 1, C-terminal low-complexity region (Fmr1, Mus musculus, UniProt P35922)
Method: RNA Bind-n-Seq
Molecule type: RNA
Sample: in vitro
Tested at: 200 nM
Setting: whole 134-nt RNA, ends assumed
Added: 150 mM LiCl
Reference: input library
Reading: higher = stronger binding
Quantity: log2 enrichment
All molecules: 7-deaza-guanosine replaces G
Constant ends, left off below: GGGAGUUCUACAGUCCGACGAUC … UGGAAUUCUCGGGUGUCAAGG
AAGUCCUGUGCUACACAUCGUAUGUACCGAAUCGGGUUUUUGGGUUUUUGGGUGGGAAAGUAUUAUGUUACGCCGUUCGGAUCUGCACUU: -1.55
UAACUUUAGAGGAGGAUCUGAUGGAUAUGGCAGUGGACGUGGAUUUGGGGAUGGCUAUAAUUGGUAUGGAGGAGGACCUGGAGGUGGCAA: 0.718
CUGUGCUACACAUCGUAUGUACCGAAUCGGGGUUUUUUGGGUUUUUUGGGGUUUUUUGGGGAAAGUAUUAUGUUACGCCGUUCGGAUCUG: 1.27
UGGGGUAGACCAGUUCCAUGGCACUGAAUAUGUGUGCUGCCCUCAGACAAAGAUUAUUGGAUCUGUGUCAAAAGAAGAGGAAGAGGAAGA: -0.98
GCAGGAAGUAAAAACAAAUGGAAAUGCUUCGGAUAGUGGCAGGGGUGGGGGUGGCUAAGGAAAGGGUGGGAUGGGAGUGGGUAAAGAGUU: 1.43

Further values, each from its own experiment
PhoQ, residues 284 288 289 292 302 303 TLSLKA — fold induction (PhoP, residues 12 14 15 18 19 YHFSH (Escherichia coli, UniProt P23836); Sort-seq, refers to: YFP reporter; E. coli; PhoQ-PhoP variant library, added: 10 µM Mg2+; reference: high Mg2+ state, higher = stronger signaling): 1.28

Excerpt of the above (study 3):
CUGUGCUACACAUCGUAUGUACCGAAUCGGGGUUUUUUGGGUUUUUUGGGGUUUUUUGGGGAAAGUAUUAUGUUACGCCGUUCGGAUCUG: 1.27
UGGGGUAGACCAGUUCCAUGGCACUGAAUAUGUGUGCUGCCCUCAGACAAAGAUUAUUGGAUCUGUGUCAAAAGAAGAGGAAGAGGAAGA: -0.98
